Experimental data gathered from unrelated publications.
Each line is one published result; not all experiments were run side by side. Several values in a cell are separate wells, animals, samples, runs or records. Numbers after ± are the reported error.

[Zn+2] — IC50 (GALR1, human; receptor activation, antagonist, NanoBiT mini-Go recruitment; HEK293T; pH 7.3, room temperature, with: galanin 1 µM): 47200 nM
O=C(NO)c1ccc(NC(=O)[C@@H](NC(=O)c2cccc(Br)c2)c2ccccc2)cc1 — IC50 (HDAC (HeLa nuclear extract); enzyme activity, inhibitor): 13.7 ± 0.7 nM
Nc1cc2c(cc1[N+](=O)[O-])[nH]c1c(-c3ccccc3)nccc12 — IC50 (NQO2; protection from toxicity; MDA-MB-468; 3 h, with: CB1954 100 µM plus NRH 100 µM): 2100 ± 1200 nM
O=C(/C=C/c1ccc2ncn(CCO)c(=O)c2c1)NO — IC50 (histone deacetylase; enzyme activity, inhibitor; HeLa nuclear extract): 974 ± 31 nM
O=C(NO)c1ccc(NC(=O)[C@@H](NC(=O)c2ccccc2Cl)c2ccccc2)cc1 — IC50 (HDAC (HeLa nuclear extract); enzyme activity, inhibitor): 95.5 ± 4.6 nM
CCc1ccc(C(=O)NN(C(=O)c2cc(C)cc(C)c2)C(C)(C)C)cc1 — IC50 (mAb-19F2 (BALB/c mouse monoclonal antibody); antibody binding, indirect competitive ELISA): > 1 µg/mL
pneumocandin H — IC50 (1,3-beta-D-glucan synthase (Candida albicans ATCC 10231); enzyme activity, inhibitor; membrane preparation; 60 min, pH 7.5, 30 °C, with: UDP-[14C]-glucose 1 mM): 9.05 ± 1.53 µg/mL
Cc1c2cnccc2c(C)c2c1c1ccccc1n2CCNCc1ccccc1 — IC50 (NQO2; protection from toxicity; MDA-MB-468; 3 h, with: CB1954 100 µM plus NRH 100 µM): 2300 ± 1900 nM
CC(C)c1cccc(C(C)C)c1NC(=O)N[C@H](C(=O)Nc1ccc(C(=O)NO)cc1)c1ccccc1 — IC50 (HDAC (HeLa nuclear extract); enzyme activity, inhibitor): 47.7 ± 3.3 nM
CC(C)C[C@H](NC(=O)[C@@H](NC(=O)N[C@H](C(=O)NCc1ccccc1)C(C)C)C(C)C)C(=O)N[C@@H](CC(C)C)C(=O)[C@@]1(C)CO1 — IC50 (rabbit 26S proteasome beta2; trypsin-like activity; 30 min, 37 °C, with: Ac-RLR-AMC): > 300 nM
N=C(N)c1ccc(OCCCCCOc2ccc(C(=N)N)cc2)cc1 — IC50 (acid-sensing ion channel; ion current, whole-cell voltage clamp; mouse hippocampal neurons; holding potential -60 mV, with: pH 5.8): 38000 nM
pneumocandin A0 — IC50 (1,3-beta-D-glucan synthase (Candida albicans ATCC 10231); enzyme activity, inhibitor; membrane preparation; 60 min, pH 7.5, 30 °C, with: UDP-[14C]-glucose 1 mM): 3.68 ± 0.6 µg/mL
CC(C)(C)c1ccc(S(=O)(=O)N[C@H](C(=O)Nc2ccc(C(=O)NO)cc2)c2ccccc2)cc1 — IC50 (HDAC (HeLa nuclear extract); enzyme activity, inhibitor): 105 nM and 106 nM
O=C(/C=C/c1ccc2c(=O)n(CC3CCCC3)cnc2c1)NO — IC50 (histone deacetylase; enzyme activity, inhibitor; HeLa nuclear extract): 72 ± 1 nM
COc1ccccc1C(=O)N[C@H](C(=O)Nc1ccc(C(=O)NO)cc1)c1ccccc1 — IC50 (HDAC (HeLa nuclear extract); enzyme activity, inhibitor): 33.6 ± 2.3 nM
CC(C)N1C(=O)N(c2ccccc2)CS/C1=N\C(C)(C)C — IC50 (mAb-19F2 (BALB/c mouse monoclonal antibody); antibody binding, indirect competitive ELISA): 0.00181 µg/mL
CCCC(CCC)C(=O)N[C@H](C(=O)Nc1ccc(C(=O)NO)cc1)c1ccccc1 — IC50 (HDAC (HeLa nuclear extract); enzyme activity, inhibitor): 22.8 ± 1.8 nM
N#Cc1c(-c2ccc(F)cc2)c(-c2ccc(F)cc2)nn(Cc2nn[nH]n2)c1=O — IC50 (tubulin (bovine); microtubule assembly, inhibitor; MAP-dependent): 1900 ± 110 nM
CN/C(=N\[N+](=O)[O-])NCc1cnc(Cl)s1 — IC50 (mAb-19F2 (BALB/c mouse monoclonal antibody); antibody binding, indirect competitive ELISA): > 1 µg/mL
O=C(Cc1ccccc1)N[C@H](C(=O)Nc1ccc(C(=O)NO)cc1)c1ccccc1 — IC50 (HDAC (HeLa nuclear extract); enzyme activity, inhibitor): 34.6 ± 2.4 nM
CC(C)C[C@H](NC(=O)[C@@H](NC(=O)N[C@H](C(=O)NCc1ccccc1)C(C)C)C(C)C)C(=O)[C@@]1(C)CO1 — IC50 (rabbit 26S proteasome beta2; trypsin-like activity; 30 min, 37 °C, with: Ac-RLR-AMC): > 10000 nM
COc1cc(C(=O)OCCCN2CCCN(CCCOC(=O)c3cc(OC)c(OC)c(OC)c3)CC2)cc(OC)c1OC — IC50 (nucleoside transporters; gemcitabine flux; mouse, jejunum in situ perfusion; with: gemcitabine 5 µM): 212000 nM
pneumocandin J — IC50 (1,3-beta-D-glucan synthase (Candida albicans ATCC 10231); enzyme activity, inhibitor; membrane preparation; 60 min, pH 7.5, 30 °C, with: UDP-[14C]-glucose 1 mM): 4.26 ± 0.9 µg/mL
Nc1ncnc2c1ncn2[C@@H]1O[C@H](COP(=O)(O)OP(=O)(O)OP(=O)(O)O)[C@@H](O)[C@H]1O — IC50 (SUR2A entire Q/N mutant/Kir6.2; KATP channel current, inhibitor, inside-out patch clamp; HEK293; with Mg2+): 64000 ± 4900 nM
CCn1cnc2cc(/C=C/C(=O)NO)ccc2c1=O — IC50 (histone deacetylase; enzyme activity, inhibitor; HeLa nuclear extract): 68 ± 1 nM
C/C(=N\C#N)N(C)Cc1ccc(Cl)nc1 — IC50 (mAb-19F2 (BALB/c mouse monoclonal antibody); antibody binding, indirect competitive ELISA): > 1 µg/mL
CCCCn1cnc2cc(/C=C/C(=O)NO)ccc2c1=O — IC50 (histone deacetylase; enzyme activity, inhibitor; HeLa nuclear extract): 124 ± 12 nM
CN1COCN(Cc2cnc(Cl)s2)/C1=N\[N+](=O)[O-] — IC50 (mAb-19F2 (BALB/c mouse monoclonal antibody); antibody binding, indirect competitive ELISA): > 1 µg/mL
Cc1ccc(Cn2cnc3cc(/C=C/C(=O)NO)ccc3c2=O)cc1 — IC50 (histone deacetylase; enzyme activity, inhibitor; HeLa nuclear extract): 44 nM and 41 to 44 nM
O=C(NO)c1ccc(NC(=O)[C@@H](NS(=O)(=O)c2c(F)cccc2F)c2ccccc2)cc1 — IC50 (HDAC (HeLa nuclear extract); enzyme activity, inhibitor): 60.2 ± 4.7 nM
O=C(/C=C/c1ccc2ncn(CC3CCCCC3)c(=O)c2c1)NO — IC50 (histone deacetylase; enzyme activity, inhibitor; HeLa nuclear extract): 391 ± 28 nM
O=C(NC(=O)c1c(F)cccc1F)Nc1ccc(Cl)cc1 — IC50 (mAb-19F2 (BALB/c mouse monoclonal antibody); antibody binding, indirect competitive ELISA): > 1 µg/mL
O=C(/C=C/c1ccc2ncn(Cc3ccc(F)cc3)c(=O)c2c1)NO — IC50 (histone deacetylase; enzyme activity, inhibitor; HeLa nuclear extract): 253 ± 15 nM
CN=C([S-])N/N=C(C)/C(C)=N/NC([S-])=NC.[Cu+2] — IC50 (human α-synuclein; peroxynitrite-induced nitration, inhibitor, ELISA; with: α-synuclein 1 µM): 1000 nM

Some of these lines once more:
Nc1cc2c(cc1[N+](=O)[O-])[nH]c1c(-c3ccccc3)nccc12 — IC50 (NQO2; protection from toxicity; MDA-MB-468; 3 h, with: CB1954 100 µM plus NRH 100 µM): 2100 ± 1200 nM
[Zn+2] — IC50 (GALR1, human; receptor activation, antagonist, NanoBiT mini-Go recruitment; HEK293T; pH 7.3, room temperature, with: galanin 1 µM): 47200 nM
Cc1c2cnccc2c(C)c2c1c1ccccc1n2CCNCc1ccccc1 — IC50 (NQO2; protection from toxicity; MDA-MB-468; 3 h, with: CB1954 100 µM plus NRH 100 µM): 2300 ± 1900 nM
